# Literature values, collected from citations in different studies.
# Compare with care: the assays were run in different laboratories.
# Sequence of UniProt Q9H4B4 (whole entry, looked up): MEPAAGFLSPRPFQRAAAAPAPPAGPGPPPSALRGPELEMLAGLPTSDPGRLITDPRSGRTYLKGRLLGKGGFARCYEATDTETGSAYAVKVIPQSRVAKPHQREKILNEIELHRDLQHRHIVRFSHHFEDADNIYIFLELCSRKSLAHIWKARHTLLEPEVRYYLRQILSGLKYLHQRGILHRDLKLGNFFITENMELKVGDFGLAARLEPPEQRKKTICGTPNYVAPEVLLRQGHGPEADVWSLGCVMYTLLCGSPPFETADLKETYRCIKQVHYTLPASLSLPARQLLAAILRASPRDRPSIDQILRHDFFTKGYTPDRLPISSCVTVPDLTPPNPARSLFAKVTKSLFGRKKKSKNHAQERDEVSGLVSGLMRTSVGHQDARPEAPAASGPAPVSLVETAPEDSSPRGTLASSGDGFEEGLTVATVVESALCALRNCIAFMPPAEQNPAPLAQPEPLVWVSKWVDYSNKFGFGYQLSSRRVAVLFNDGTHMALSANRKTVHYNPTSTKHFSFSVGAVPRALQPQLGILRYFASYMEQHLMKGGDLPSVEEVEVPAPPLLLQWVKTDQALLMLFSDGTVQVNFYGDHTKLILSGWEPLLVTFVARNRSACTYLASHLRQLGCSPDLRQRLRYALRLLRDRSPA
Compound,target or system,test,test system,conditions,scale,quantity,value
Cc1cc(NC(=O)c2cccc(NC(=O)/C=C/CN(C)C)c2)ccc1Nc1nccc(-c2cccnc2)n1,JNK2,,,1 µM,reference: control,remaining activity,0%
CCN(CC)c1nc(N)c2c(N)nc3c(c2c1C#N)C(=O)CN3Cc1ccccc1,Plasmodium falciparum,whole cell extended time,3D7,72 h,,IC50,0.07 µM
COc1ccccc1Oc1cccc(CN2CCC3(CC2)C(=O)NCN3CCc2ccccc2)c1,human CCR8 F123A mutant (TM3),"IP accumulation, agonist",,,,EC50,0.007 µM
CCCCCC(CCC)C(=O)O (stereo not drawn),HDAC,"enzyme activity, inhibitor",,"day 10, unbound medium concentration",,EC10,13 µM
CNC(=O)c1c(C)oc2cc(Oc3ncnc4cc(OC)c(OC)cc34)ccc12,VEGFR-2 (mouse),receptor phosphorylation,mouse,"oral, 2.5 mg/kg single dose",,inhibition,> 80%
CCCC(C)C(=O)O (stereo not drawn),HDAC,"enzyme activity, inhibitor",,"day 10, unbound medium concentration",,EC10,1440 µM
COc1ccccc1Oc1cccc(CN2CCC(NC(=O)C3CC(=O)Nc4ccccc43)CC2)c1 (stereo not drawn),human CCR8 S262A mutant (TM6),"IP accumulation, agonist",,,,EC50,0.093 µM
CNC(C)C1CCC(N)C(OC2C(N)CC(N)C(OC3OCC(C)(O)C(NC)C3O)C2O)O1 (stereo not drawn),Escherichia coli,,clinical isolate RKI-No_513/16,,,MIC,2 mg/L
Nc1cc(C(F)(F)F)c(-c2nc(N3CCOCC3)nc(N3CCOCC3)n2)cn1,"PLK3 (Homo sapiens, UniProt Q9H4B4)",enzyme activity,,10 µM,reference: untreated,remaining activity,96%
CCNS(=O)(=O)c1ccc(OC)cc1C1(O)CCN(Cc2cccc(Oc3ccccc3OC)c2)CC1,human CCR8 S110H mutant (TM3),"IP accumulation, agonist",,,,EC50,> 10 µM
N[C@@H](CCC(=O)O)C(=O)O,kainate receptor,binding,,historical reference data,,Hill coefficient,0.8
[Zn],glycine receptor,biphasic modulator,,,,potentiating concentration,< 10 µM
c1cc(-c2cnn3cc(-c4ccc(OCCN5CCCCC5)cc4)cnc23)ccn1,CSNK1D,"kinase activity, inhibitor",,0.5 µM,,inhibition,77%
[Br-].[K+],"anion exchanger, human",substrate,neutrophils,,,Km,9.4 mM
CCN(CC)CCCCNc1ncc2cc(-c3cc(OC)cc(OC)c3)c(NC(=O)NC(C)(C)C)nc2n1,c-Src,inhibitor,,,,IC50,19.8 µM
CCCC(CCC)C(=O)O,histone deacetylase,"enzyme activity, inhibitor",mouse embryonic stem cells,unbound medium concentration,,EC10,34 µM
O=C(C1CCCCC1)N1CC(=O)N2CCc3ccccc3[C@H]2C1,TRPM8 human,,,,,EC50,~20 µM
C=CCCC(=O)O,HDAC,"enzyme activity, inhibitor",,"day 10, unbound medium concentration",,EC10,30 µM
CC(O)C(C)n1ncn(-c2ccc(N3CCN(c4ccc(OCC5COC(Cn6cncn6)(c6ccc(Cl)cc6Cl)O5)cc4)CC3)cc2)c1=O (stereo not drawn),CYP3A4 human,substrate,,,,Vmax,0.095 pmol/min/mg protein
CC(C)Oc1ccc(-c2c[nH]cc2CN(C)CCN)cc1,PRMT5,"enzyme activity, inhibitor",,concentration not given,,inhibition,inactive
O=C(Nc1nc2ccccc2[nH]1)c1ccccc1,SUMO1 specific protease 6,,,"12.5 µM, PubChem AID 488915",,response,91%
COc1cc(Nc2c(C#N)cnc3cc(OCCCN4CCN(C)CC4)c(OC)cc23)c(Cl)cc1Cl,CSNK1G1,"kinase activity, inhibitor",,0.5 µM,,inhibition,4%
O=C(c1cc(-c2cc3c(cc2C(=O)N2Cc4ccccc4C[C@H]2CN2CCOCC2)OCO3)n2c1CCCC2)N(c1ccccc1)c1ccc(O)cc1,BCL-2 G101V,,,,reference: G101V over wild type,EC50 fold change,8.4
CC(C)(O/N=C(\C(=O)N[C@@H]1C(=O)N2C(C(=O)[O-])=C(C[N+]3(CCNC(=O)c4ccc(O)c(O)c4Cl)CCCC3)CS[C@H]12)c1csc(N)n1)C(=O)O,L1,"hydrolysis by enzyme, substrate",,,,kcat,12 s⁻¹
CC1(C)S[C@@H]2[C@H](NC(=O)[C@H](N)c3ccccc3)C(=O)N2[C@H]1C(=O)O,Escherichia coli,,clinical isolate RKI-No_590/16,,,MIC,> 16 mg/L
CCN(CC)CC.CCN(CC)CC.O=c1ccn([C@]23C[C@H]2[C@H](COP(=O)(O)OP(=O)(O)O)[C@@H](O)[C@H]3O)c(=O)[nH]1,P2Y14 receptor,,,concentration not given,,activity,inactive
Nc1ncn([C@@H]2O[C@H](CO)[C@@H](O)[C@H]2O)c(=O)n1,cytidine deaminase (human),substrate,,"concentration not given, 37 °C",,Vmax,38 U/mg
Cc1cccc(-c2[nH]c(CNc3ccccc3F)nc2-c2ccc3ncnn3c2)n1,OATP1B3 and OATP2B1,"transport activity, inhibitor",,up to 100 µM,,inhibition,no inhibition
Nc1ccn([C@@H]2O[C@H](CO)[C@@H](O)[C@H]2F)c(=O)n1,cytidine deaminase (human),substrate,,"concentration not given, 37 °C",,Vmax,146 U/mg
C=C1C(=O)O[C@@H]2C[C@@]3(C)CCCC(=C)[C@@H]3C[C@H]12,NR4A1 (Nur77),inverse agonist or antagonist,,,,active concentration,21.5 µM
CC(C)[C@H](CO)Nc1nc(Nc2cc(N)cc(Cl)c2)c2ncn(C(C)C)c2n1,CSNK1G1,"kinase activity, inhibitor",,0.5 µM,,inhibition,74%
COc1ccccc1Oc1cccc(CN2CCC(O)(c3ccccc3C(=O)O)CC2)c1,human CCR8 S110W mutant (TM3),"IP accumulation, agonist",,,,EC50,> 10 µM
COc1ccc2nc3cc(Cl)ccc3c(Nc3ccc(C(=O)O)cc3)c2c1,Plasmodium falciparum,whole cell extended time,3D7,72 h,,IC50,0.3 µM
O=C1NC(=O)c2c1c1c3ccccc3[nH]c1n1cncc21,CSNK1D,"kinase activity, inhibitor",,concentration not given,,inhibition,85%
CCCCC(C)C(=O)O (stereo not drawn),histone deacetylase,"enzyme activity, inhibitor",mouse embryonic stem cells,unbound medium concentration,,EC10,2050 µM
Nc1ccc(C(=O)NCC(=O)O)cc1,"anion exchanger, human",substrate,neutrophils,,,Km,50.3 mM
Cl.Nc1nccc(-c2c(-c3ccc(F)cc3)ncn2C2CCNCC2)n1,CSNK1E,"kinase activity, inhibitor",,0.5 µM,,inhibition,99%
CCC(CC)C(=O)O,HDAC,"enzyme activity, inhibitor",,"day 4, unbound medium concentration",,EC10,4500 µM
C[C@H]1COCCN1c1nc(-c2cnc(N)cc2C(F)F)nc(N2CCOCC2)n1,44 tumour cell lines,,,,,GI50,0.426 µM
Fc1ccc(-c2nc3n(c2-c2ccncc2)CCS3)cc1,CSNK1D,"kinase activity, inhibitor",,concentration not given,,inhibition,97%
COc1ccccc1Oc1cccc(CN2CCC(NC(=O)C(CCN3CCCC3)c3ccccc3)CC2)c1 (stereo not drawn),human CCR8 W194A mutant (TM5),"IP accumulation, agonist",,,,EC50,0.00022 µM
CC(C)n1cnc2c(Nc3cccc(Cl)c3)nc(NCCO)nc21,CSNK1D,"kinase activity, inhibitor",,0.5 µM,,inhibition,51%
CCCC(C)(C)C(=O)O,histone deacetylase,"enzyme activity, inhibitor",mouse embryonic stem cells,unbound medium concentration,,EC10,707 µM
CC(=O)N[C@H]1[C@@H](OP(=O)(O)OP(=O)(O)OC[C@H]2O[C@@H](n3ccc(=O)[nH]c3=O)[C@H](O)[C@@H]2O)O[C@H](CO)[C@@H](O)[C@@H]1O,P2Y14 receptor,agonist,,,,EC50,~0.19 µM
CC(C)[C@H](CO)Nc1nc(Nc2cccc(Cl)c2)c2ncn(C(C)C)c2n1,CSNK1D,"kinase activity, inhibitor",,concentration not given,,inhibition,26%
